Measured values collected from several papers.
± gives the spread as reported.
Target: Cytochrome P450 2D6 (CYP2D6, Homo sapiens, UniProt P10635)
UniProt P10635, sequence (whole entry, looked up): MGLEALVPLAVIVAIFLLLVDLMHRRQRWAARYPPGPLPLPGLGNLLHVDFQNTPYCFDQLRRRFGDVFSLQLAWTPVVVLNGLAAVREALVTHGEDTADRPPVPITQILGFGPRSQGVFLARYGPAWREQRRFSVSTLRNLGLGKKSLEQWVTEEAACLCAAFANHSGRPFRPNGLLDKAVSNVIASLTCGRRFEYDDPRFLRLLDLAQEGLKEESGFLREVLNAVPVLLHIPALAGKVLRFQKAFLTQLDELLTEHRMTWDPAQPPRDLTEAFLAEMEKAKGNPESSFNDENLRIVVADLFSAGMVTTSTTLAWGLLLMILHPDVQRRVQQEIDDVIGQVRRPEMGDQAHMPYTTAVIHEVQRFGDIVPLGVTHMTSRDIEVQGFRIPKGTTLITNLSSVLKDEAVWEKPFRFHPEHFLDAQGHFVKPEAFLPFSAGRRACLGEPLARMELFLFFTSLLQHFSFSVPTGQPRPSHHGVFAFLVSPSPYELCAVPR

N#Cc1ccc(C(O)c2ccc(C#N)cc2)cc1 — IC50 (inhibitor): 158 µM
COc1ccc2c(c1)[C@]13CCCC[C@@H]1[C@H](C2)N(C)CC3 — AUC(0-inf) (human, plasma; oral, dose not given, day 12, fluoxetine treatment, with: fluoxetine): 1.85 ± 0.8 µM·h
C[C@@H](NC(C)(C)C)C(=O)c1ccc(O)c(Cl)c1 — IC50 (enzyme activity, inhibitor): > 50 µM
CC[C@@H]1CN2CC[C@@]3(O)C(=Nc4cccc(OC)c43)[C@@H]2C[C@@H]1/C(=C\OC)C(=O)OC — IC50 (enzyme activity, inhibitor; human, liver microsomes): > 45 µM
CNC(=O)O/N=C/C(C)(C)[S+](C)[O-] (stereo not shown) — inhibition (inhibitor; human liver microsomes; 2 µM, pH 7.4, with: dextromethorphan): < 0%
C[C@H]1NC(C)(C)CO[C@]1(O)c1cccc(Cl)c1 — IC50 (enzyme activity, inhibitor; human suspension hepatocytes; 30 min, protein-free buffer, media concentrations, with: dextromethorphan 1 µM): 6.6 µM
CNC(C)Cc1ccc2c(c1)OCO2 (stereo not shown) — kinact (inactivator; proteoliposomes; 5 to 100 µM, pH 7.4, with: dextromethorphan substrate): 0.000983 ± 0.0002 s⁻¹
CC[C@H]1CN2CCc3c([nH]c4cccc(OC)c34)[C@@H]2C[C@@H]1/C(=C\OC)C(=O)OC — IC50 (enzyme activity, inhibitor; human, liver microsomes): 12.9 µM
CNC(=O)O/N=C/C(C)(C)S(C)(=O)=O — inhibition (inhibitor; human liver microsomes; 10 µM, pH 7.4, with: dextromethorphan): 4.23%
C[C@H](NC(C)(C)C)[C@@H](O)c1cccc(Cl)c1 — IC50 (enzyme activity, inhibitor): 13 µM

A few entries again:
C[C@H]1NC(C)(C)CO[C@]1(O)c1cccc(Cl)c1 — IC50 (enzyme activity, inhibitor; human suspension hepatocytes; 30 min, protein-free buffer, media concentrations, with: dextromethorphan 1 µM): 6.6 µM
